Results pooled from the literature.
Lines come from different studies, so protocols differ. Values joined by “and” are separate records of one study, mostly repeats; a detail may differ. ± gives the spread as reported.

For `CC[C@H](C)/C=C/C=C/C=C/C(O)=C/C(=O)C(F)(F)F`, the hydrate fraction was 45% (UPLC-MS; PBS with DMSO; 100 µM, 1 h, pH 7.4, room temperature, 1% DMSO).
For `Cc1cc(C)n(CCN(CCN)CCCCCCNC(=O)[C@@H](N)Cc2c[nH]cn2)n1.[99Tc+].[C-]#[O+].[C-]#[O+].[C-]#[O+]`, the tumour-to-tissue ratio was 0.8 (BALB/c nude mice A549 xenograft; intravenous, 15 min; baseline: tumour over blood).
With `NS(=O)(=O)c1c(F)c(F)c(SCCc2ccc(C(=O)O)cc2)c(F)c1F` the pKa was 8.05 (sulfonamide group).
`C=CC(=O)Nc1cc(Nc2nccc(-c3cn(C)c4ccccc34)n2)c(OC)cc1N(C)CCNC` has a recovery of 91% (storage stability; human dried blood spots; 24 h, -80 °C, LLOQ level).
The tumour uptake of `CCCC[C@H]1C(=O)N(C)[C@@H](CCCC)C(=O)N[C@@H](CCCCNC(=S)Nc2ccc(CN3CCN(CC(=O)O)CCN(CC(=O)O)CC3)cc2)C(=O)N[C@H](C(=O)NCC(N)=O)CSCC(=O)N[C@@H](Cc2ccc(O)cc2)C(=O)N(C)[C@@H](C)C(=O)N[C@@H](CC(N)=O)C(=O)N2CCC[C@H]2C(=O)N[C@@H](Cc2cnc[nH]2)C(=O)N[C@@H](CCC(=O)O)C(=O)N2C[C@H](O)C[C@H]2C(=O)N[C@@H](Cc2c[nH]c3ccccc23)C(=O)N[C@@H](CO)C(=O)N[C@@H](Cc2cn(CC(=O)O)c3ccccc23)C(=O)N1C` [fluorine-18 labelled] is reported as 6.16 ± 3.28 %ID/g (T24 subcutaneous xenograft, NSG mouse, tumour; intravenous, 60 min).
`COc1cccc(OC)c1-c1cc(C(=O)NC2(C(=O)O)C3CC4CC(C3)CC2C4)nn1-c1ccc(C(=O)N(C)CCCN(C)C(=O)[C@H](CCCCNC(=O)[C@H](CC(C)C)NC(=O)C2OC2C(=O)O)NC(=O)CN2CCN(CC(=O)[O-])CCN(CC(=O)[O-])CCN(CC(=O)[O-])CC2)cc1C(C)C.[177Lu+3]` (mixture of isomers) gave a tumour-to-heart ratio of 19.4 (mouse, HT-29 xenograft; 24 h post injection, biodistribution; baseline: tumour over heart uptake).
For `C=CC(=O)N1CCCC(n2c(=O)c3ncccc3n(Cc3ccc(Oc4ccccc4)cc3)c2=O)C1` (stereo not shown), the concentration was 27600 ng/mL (male BALB/c mouse, plasma; oral, 200 mg/kg, 15 min).
Under “milk fat partition ratio”, `CS(=O)(=O)c1cc(Cl)cc(-c2cc(Cl)c(Cl)cc2Cl)c1Cl` is recorded as 226 (cow whole milk; 500 nM; baseline: milk fat over skim milk).
The tracer uptake of `[123I]c1ccc2nc(-c3ccc(-n4ccnn4)nc3)cn2c1` is reported as 0.062 %ID/g (male Wistar rat, spleen; intravenous, 4 MBq, 6 h).
`C=Cc1c(C)c2cc3nc(c(CC(=O)OCCOCCOCCOC)c4[nH]c(cc5nc(cc1[nH]2)C(C)=C5CC)c(C)c4C(=O)O)[C@@H](CCC(=O)OCCOCCOCCOC)[C@@H]3C` gave a compound loss of 39% (LC-MS; methanol-water 9:1; 1 h, pH 2.0).
The Tmax of `CCCCCCCOc1ccc(CC[C@](N)(CO)COP(=O)(O)O)cc1C(F)(F)F` is reported as 12 h (healthy human males, plasma; oral, 0.75 mg, day 21, median).
`C=CC(=O)Nc1cc(Nc2nccc(-c3c[nH]c4ccccc34)n2)c(OC)cc1N(C)CCN(C)C` has a recovery of 58.8% (human plasma; 24 h, storage stability, medium QC sample).
`CCCC[C@H](NC(=O)CNC(=O)CNC(=O)[C@H](CCCCNC(=O)[C@H](CC(N)=O)NC(=O)C(C)c1ccc(CC(C)C)cc1)NC(=O)CN1CCN(CC(=O)O)CCN(CC(=O)O)CCN(CC(=O)O)CC1)C(=O)N[C@H]1CC(=O)NCCCC[C@@H](C(N)=O)NC(=O)[C@H](Cc2c[nH]c3ccccc23)NC(=O)[C@H](CCCNC(=N)N)NC(=O)[C@@H](Cc2ccccc2)NC(=O)[C@H](Cc2c[nH]cn2)NC1=O` (stereo partly shown) [lutetium-177 labelled] has a tumour-to-tissue ratio of 54.3 (C57 mice, tumour; 2 h; baseline: blood).
With `Cn1c2cc([S+](C)[O-])sc2c2cnn(Cc3cccc(N)c3)c(=O)c21` (stereo not shown) the Cmax was 10200 ng/mL (male BALB/c mouse, plasma; oral, 10 mg/kg, single dose).
For `O=C(CN1CCN(CC(=O)NCc2ncccc2O)CCN(CC(=O)NCc2ncccc2O)CCN(CC(=O)NCc2ncccc2O)CC1)NCc1ncccc1O.[177Lu+3]`, the tissue uptake was 0.079 ± 0.026 % injected dose/g (Sprague-Dawley rat, bone; intravenous (tail vein), dose not given, 2 h).
The clearance of `C=C(NC(=O)c1csc(-c2nc3c(cc2O)-c2nc(cs2)C(=O)NC(C(C)O)C(=O)NC(=C(C)OC)c2nc(cs2)C(=O)NC2c4nc(cs4)C(=O)NC(COC(=O)c4c5c6c(cccc6n4O)COC(=O)C(OC4CC(C)(O)C(N(C)C)C(C)O4)C2OC5)c2nc-3cs2)n1)C(N)=O` (stereo not shown) is reported as 2.53 mL/min/kg (cynomolgus monkey, male, plasma; intravenous infusion, 3 mg/kg, multiple doses, day 7).
`O=C(C1CC1)N1CCC=C(c2cc3c(Nc4cc5ncsc5cc4F)ncnc3s2)C1` has an oral bioavailability of 51.5% (BALB/c mouse).
`CN1CCC[C@]1(C)/C=C/S(=O)(=O)NC(=O)Nc1c2c(cc3c1CC(O)C3)CCC2` (stereo partly shown) — result for “Tmax at second steady-state dose”: 4 h (human, plasma; oral, 12.5 mg twice daily of parent drug, day 14, metabolite of dosed drug).
`COCC1CN(C2CCN(c3cc(OC)c(Nc4ncc(Br)c(Nc5ccc6c(c5P(C)(C)=O)OCCO6)n4)cc3C)CC2)C1` — result for “serious adverse events”: 0% (first-in-human trial; human; oral, 10 mg once daily; treatment-related).
For `Cc1nn(-c2nc3c(F)cc(F)cc3s2)c(O)c1C(c1ccc(C(F)(F)F)cc1)c1c(C)nn(-c2nc3c(F)cc(F)cc3s2)c1O`, the dose-normalised Cmax was 432 kg·ng/mL/mg and 437 kg·ng/mL/mg and 455 kg·ng/mL/mg (ICR mouse, plasma; intraperitoneal, 10 mg/kg).
`CC(C)OCCOCc1ccc(OCC(O)CN(N=O)C(C)C)cc1` (stereo not shown) gave a fold change of 1.04 (duplex sequencing, measured: mutation frequency; NMRI mouse, liver; oral, 29.85 mg/kg/day, 4 weeks; baseline: vehicle).
`CC[C@H](C)[C@@H]1NC(=O)[C@H](Cc2ccc(O)cc2)NC(=O)CCCSC[C@@H](C(=O)N(CC(=O)N[C@@H](CC(C)C)C(=O)NCC(N)=O)Cc2ccc(F)cc2)NC(=O)[C@H](CC(N)=O)NC(=O)[C@H](CCC(N)=O)NC1=O` — result for “serious adverse events”: 0% (human; intranasal, 15 µg single dose).
The tissue uptake of `CC(C(=O)O)n1nc(Cn2cc3cc(OCC[18F])c(Cl)cc3n2)c2ccccc2c1=O` (racemic) is reported as 0.25 ± 0.08 %ID/g (Sprague-Dawley rat male, pancreas; 5 min).
The tumour-to-tissue ratio of `CC(C)C[C@H](NC(=O)[C@@H](CCCCNC(=O)[C@@H](Cc1ccccc1)NC(=O)CCCCCCCNC(=O)CN1CCN(CC(=O)O)CCN(CC(=O)O)CCN(CC(=O)O)CC1)NC(=O)[C@H](Cc1ccc(O)cc1)NC(=O)[C@H](CO)NC(=O)[C@H](Cc1c[nH]c2ccccc12)NC(=O)[C@H](Cc1c[nH]cn1)NC(=O)[C@@H]1CCC(=O)N1)C(=O)N[C@@H](CCCNC(=N)N)C(=O)N1CCC[C@H]1C(=O)NCC(N)=O` [indium-111 labelled] is reported as 4.57 (male athymic nude mice, DU-145 prostate cancer xenograft, tumour; intravenous, 0.037 MBq, 4 h; baseline: tumour over blood).
`O=C(Nc1cnccc1-c1ccc([18F])cc1)c1ccnc(NC(=O)C2CC2)c1` has an SUV of 0.05 (FVB/NJ mice (both sexes), cerebellum; intravenous, dose not given, 120 min).
`CC(=O)N([O-])CCCCCNC(=O)CCC(=O)N([O-])CCCCCNC(=O)CCC(=O)N([O-])CCCCCN.[89Zr+4]` has a tracer uptake of 0.67 %ID/g (mouse, blood; 1 h).
`CC(=O)N[C@H](CC(=O)O)C(=O)N[C@H](Cc1c[nH]c2ccccc12)C(=O)N[C@H](Cc1ccccc1)C(=O)N[C@H](CCCCN)C(=O)N[C@H](C)C(=O)N[C@H](Cc1ccccc1)C(=O)N[C@H](Cc1ccc(O)cc1)C(=O)N[C@H](CC(=O)O)C(=O)N[C@H](CCCCN)C(=O)N[C@@H](C(=O)N[C@H](C)C(=O)N[C@H](CCC(=O)O)C(=O)N[C@H](CCCCN)C(=O)N[C@H](Cc1ccccc1)C(=O)N[C@H](CCCCN)C(=O)N[C@H](CCC(=O)O)C(=O)N[C@H](C)C(=O)N[C@H](Cc1ccccc1)C(N)=O)C(C)C` gave a plasma concentration of 110 ng/mL (human, plasma; oral, dose not given, 0.5 h post-dose, day 13).
For `O[C@@H]1[C@@H](O)[C@H](n2cc(COc3ccc(-c4nncnn4)cc3)nn2)O[C@H](C[18F])[C@H]1O`, “tumour to muscle ratio” read 3.6 (BALB/c nude mouse, LS174T xenograft; intravenous, 1 h, with: CC49-TCO 72 h before).

A few entries again:
For `C=CC(=O)N1CCCC(n2c(=O)c3ncccc3n(Cc3ccc(Oc4ccccc4)cc3)c2=O)C1` (stereo not shown), the concentration was 27600 ng/mL (male BALB/c mouse, plasma; oral, 200 mg/kg, 15 min).
Under “milk fat partition ratio”, `CS(=O)(=O)c1cc(Cl)cc(-c2cc(Cl)c(Cl)cc2Cl)c1Cl` is recorded as 226 (cow whole milk; 500 nM; baseline: milk fat over skim milk).
